Experimental data collected from several papers.
Numbered parts are unrelated; each lists some results of a single study.

Series 1
Target: Interferon regulatory factor 7, full length, phosphomimetic (IRF7, Homo sapiens, UniProt Q92985, residues 1-503, S101K/S471D/S472D/S475D/S476D/S477D/S483D/S484D/S487D)
Technique: protein-binding microarray
Form: double-stranded DNA, one strand shown
Matrix: in vitro
Tested at: 250 nM
Notes: 60-bp whole probe
Together with: salmon DNA 0.4 mg/ml
Reference: random background probes
Direction: higher = stronger binding
All sequences stand within: GCCTAGCAC … GTCTTGATTCGCTTGACGCTGCTG
Construct (chain): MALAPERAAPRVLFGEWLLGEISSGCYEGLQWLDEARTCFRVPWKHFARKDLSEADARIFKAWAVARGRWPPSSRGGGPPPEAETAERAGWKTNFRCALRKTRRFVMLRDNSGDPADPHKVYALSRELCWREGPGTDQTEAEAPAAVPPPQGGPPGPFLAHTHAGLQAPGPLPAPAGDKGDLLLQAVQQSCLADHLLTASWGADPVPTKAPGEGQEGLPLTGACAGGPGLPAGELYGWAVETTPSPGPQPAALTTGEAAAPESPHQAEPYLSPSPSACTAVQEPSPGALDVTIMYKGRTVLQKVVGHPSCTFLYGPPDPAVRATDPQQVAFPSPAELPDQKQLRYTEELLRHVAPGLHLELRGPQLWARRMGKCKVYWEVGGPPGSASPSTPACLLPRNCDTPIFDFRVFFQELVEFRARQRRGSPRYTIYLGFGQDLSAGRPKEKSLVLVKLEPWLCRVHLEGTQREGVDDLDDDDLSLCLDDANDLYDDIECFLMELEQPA
| Oligonucleotide | log fluorescence [z-score] |
| --- | --- |
| GACGTTATCAGTATCGAGACGTGCTAG | 0.272 |
| GACGGTTTCGGGCTGGGGACGTGCTAG | 3.21 |
| GACGGACTGGGACTTGGGACGTGCTAG | -0.747 |
| ATTTGTCCCTATTTAAGAGAGTGCTAG | 4.19 |
| TCATGCTTCGAGATCTCACTGTGCTAG | 0.387 |
| TTAGATATCCTTTTCCTTTAGTGCTAG | 0.943 |
| CCCTGCGTGGTCTCGAGCTGGTGCTAG | -1.11 |
| GACGGCCTGGACACTGGGGACGTGCTA | -0.687 |
| GACGGTATCGACACTGGTGACGTGCTA | -0.263 |
| TTAGACTTCGGGTTTCGATTAGTGCTA | 6.33 |
| TCAGCTTTCCTTCATGCACTGTGCTAG | 0.489 |
| CTCTGTCCCTGTTTCTACTGGTGCTAG | 2.04 |
| TTAGGTTTCCGTTTCCTTTAGTGCTAG | 9.38 |
| TTGGTTCTCAGCTTGGGGCAGTGCTAG | 0.534 |

Series 2
Target: Sal-like protein 4, full length isoform B (SALL4, Homo sapiens, UniProt Q9UJQ4-2, residues 1-616)
Technique: universal PBM
Form: double-stranded DNA, one strand shown
Matrix: in vitro
Tested at: not given
Notes: 8-mer, flanks averaged, mean of replicates
Direction: higher = stronger binding
Construct (chain): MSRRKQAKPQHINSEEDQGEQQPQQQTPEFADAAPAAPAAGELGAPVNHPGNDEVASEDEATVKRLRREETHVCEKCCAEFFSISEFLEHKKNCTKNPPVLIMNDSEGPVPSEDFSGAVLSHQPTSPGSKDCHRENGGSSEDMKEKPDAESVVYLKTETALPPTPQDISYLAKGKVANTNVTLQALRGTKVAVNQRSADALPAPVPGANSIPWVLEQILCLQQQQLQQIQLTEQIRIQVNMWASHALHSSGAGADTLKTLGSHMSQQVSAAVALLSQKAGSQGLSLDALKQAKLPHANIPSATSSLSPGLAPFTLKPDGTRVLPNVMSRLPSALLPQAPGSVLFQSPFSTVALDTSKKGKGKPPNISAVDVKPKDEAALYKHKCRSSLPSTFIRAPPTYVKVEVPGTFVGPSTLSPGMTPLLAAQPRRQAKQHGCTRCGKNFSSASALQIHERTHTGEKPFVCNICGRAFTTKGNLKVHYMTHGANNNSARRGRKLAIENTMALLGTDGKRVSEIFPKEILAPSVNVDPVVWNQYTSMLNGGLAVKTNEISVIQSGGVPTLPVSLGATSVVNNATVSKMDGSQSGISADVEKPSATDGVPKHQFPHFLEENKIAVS
| Oligonucleotide | E-score |
| --- | --- |
| CAGTGGGG | -0.361 |
| AGCCCGAT | -0.159 |
| CTCTGCCA | -0.153 |
| ATCCTGCC | -0.187 |
| AGAAAGAT | 0.169 |
| ACGCTAAC | -0.21 |
| ACGAAGCG | -0.202 |
| CATAGAGG | 0.0372 |
| AACCAAAT | 0.0378 |
| ATCTGCCA | -0.0477 |
| ACATTAGG | 0.168 |
| CGCCGACC | -0.328 |
| GGGACAAC | -0.214 |
| TCAGGAGA | 0.112 |
| GAACCCAA | -0.0702 |
| ACTTACTC | 0.0305 |
| CGGGAAGC | -0.178 |
| GATCCCAC | -0.137 |
| AGTTTGTG | -0.0176 |
| TCAAATCA | 0.191 |
| CTGATCAA | -0.111 |
| GCACCGGC | -0.361 |
| AGCGAGTC | -0.178 |
| AAGCACTG | 0.058 |
| ATCTACGA | 0.12 |

Series 3
Target: Histone acetyltransferase KAT6A, both winged helices, GST fusion (KAT6A, Homo sapiens, UniProt Q92794, residues 1-181)
Technique: protein binding microarray
Form: double-stranded DNA, one strand shown
Matrix: in vitro
Tested at: not given
Notes: 8-mer, flanks averaged, mean of 2 arrays, mostly near background
Reference: not given
Direction: higher = stronger binding
Construct (chain): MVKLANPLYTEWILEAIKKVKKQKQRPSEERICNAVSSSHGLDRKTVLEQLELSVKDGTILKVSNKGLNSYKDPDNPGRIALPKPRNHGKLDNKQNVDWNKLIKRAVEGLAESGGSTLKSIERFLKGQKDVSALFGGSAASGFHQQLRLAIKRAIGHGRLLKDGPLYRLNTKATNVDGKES
| Oligonucleotide | E-score |
| --- | --- |
| CCAGCTAG | -0.267 |
| GAAATCCA | -0.075 |
| CGGCACGA | 0.136 |
| CGGTGGCA | 0.0376 |
| CTACTGTC | -0.0896 |
| ATTCGTAC | -0.0753 |
| AAAACTAT | -0.0343 |
| GGGTTATA | 0.0369 |
| AACCTTGA | -0.0679 |
| CCGGCAGC | 0.243 |
| ATACTCCG | 0.149 |
| GTTTTTTA | -0.112 |
| CACCGGAG | 0.114 |
| GGGAGCAC | -0.148 |
| AATAACCT | -0.183 |
| CGTCGGCA | 0.309 |
| CACTGAGC | -0.0327 |
| ACGATCAT | -0.05 |
| CGTGGATC | -0.0266 |
| AACCGTGG | -0.0241 |
| CGTATTAG | 0.096 |
| TAAGAGGA | -0.317 |
| AGGCACCG | 0.0157 |
| GTTCCATA | -0.0475 |

Series 4
Target: RNA binding protein fox-1 homolog 2, RRM domain, GST-SBP tag (RBFOX2, Homo sapiens, UniProt O43251-10, residues 100-194)
Technique: RNA Bind-n-Seq
Form: RNA
Matrix: in vitro
Tested at: 365 nM
Notes: natural RNA segment, single round, ends assumed
Reference: no-protein control
Direction: higher = stronger binding
All sequences stand within: GGGAGUUCUACAGUCCGACGAUC … UGGAAUUCUCGGGUGCCAA
| Oligonucleotide | RBNS enrichment (R) |
| --- | --- |
| UGUGGUUUCCAGAUGAGGGUCUGGGUCCCGGAAGCUUGUGUUGAGAGCUCAGUGGACCCACCCCGCUUGCUGAACCCUCACAGUUCUUGGGGUUGUCCAGCCUGGACUUG | 0.365 |
| GGAAGAGGACACGCCAGAGCUUCAGUGAGGUUUCCGAGCCUCUCCCUGCCCAUCCUCACCACUGAGGCCACGACAAAGCACAGCUCCAGCUCGGACAGCACCCUCAGUGC | 0.403 |
| UUUCUCGGCCAACACAUUAAAACCAUUCUUGGAUUUCAAGUAGCCAACUUUGCCUUUUAUGUAUUCUUACAUAGUUUCCUCUUGAAGAAAAAAAAAGCAGAGUUUUUGUU | 0.499 |
| UUUUGUUUUUUUUUAAUGUGUCAACUUGGGCUCAGGCUGUAGUUGUGUUGCGUGCCUGCUUAGCAUAUACAAGGGCCUGGGACUGGGCCCCAGUAUGGAAGAAAGACUUA | 7.45 |
| GUCUAAGAUGGAUUAAACAAGUAUAAAAUAAAAUACAUUUAUAAAAUAAAAAGGAAAACAGACUUAAUUUUCUCCUAUGUUAAUUGACUUGUAUUAUAGUUGAAUCUAUG | 0.835 |
| UUCUCUUUGUUUCUGUUUCUUGCUCUCUCUCCCUGCCUUUAAAUGAAACAAGUCUAGUCUUCUGGUUUUCUAGCCCCUCUGGAUUCCCUUUUGACUCUUCCGUGCAUCCC | 1.13 |
| CCACACUUGACAUGCGGAGCAAUCCUGCAUGUUGGUCCCCAUCUCCCCCACUAGAAACCCACUUCCAGAGUCAUGUUUGCAUCACAGUCAAAAGAGAAGUCUGUGCACCU | 0.747 |
| AAUGCUAAUAUUAAAAGUCACAAUGUUCUUUAUAUACAAUAAUGGAAAAAAAAAAAAGAGGAAAACCCUCAAGGGCAUGAGCAUUGGAUACAGCAGUAGACAUUUUAACA | 0.667 |

Excerpt of the above (series 3):
| Oligonucleotide | E-score |
| --- | --- |
| CCGGCAGC | 0.243 |
| CGGCACGA | 0.136 |
| CGTATTAG | 0.096 |
| CTACTGTC | -0.0896 |
